Measured values pooled from the literature.
Compare with care: the assays were run in different laboratories. Values joined by “and” are separate records of one study, mostly repeats; a detail may differ. Numbers after ± are the reported error.

Structure (SMILES) = C[n+]1cc(NC(=O)c2ccc3ccc4ccc(C(=O)Nc5cc6ccccc6[n+](C)c5)nc4c3n2)cc2ccccc21; tested on = G-quadruplex DNA myc22 parallel; assay = UV melting; setting = 6 µM, K10 buffer, together with: DNA 3 µM; endpoint = delta Tm; result = 1.2 °C
Structure (SMILES) = O=C(CC(F)(F)F)Nc1ccc([C@H]2[C@@H](F)[C@@H](F)C[C@@H](F)[C@H]2F)cc1; assay = liver microsome stability; system = mouse liver microsomes; setting = 1 µM; endpoint = hepatic clearance; result = 14 mL/min/kg
Structure (SMILES) = CC[n+]1cccc2cc(/C=N/NC(=O)c3ccc4ccc(C(=O)N/N=C/c5ccc6c(ccc[n+]6CC)c5)nc4n3)ccc21; tested on = 22CTA telomeric G4-DNA antiparallel; assay = FRET melting; setting = 1 µM, K10 buffer, DNA 0.2 µM; endpoint = ΔTm; result = 15.9 ± 0.3 °C
Structure (SMILES) = O=C(Nc1ccc([C@H]2[C@@H](F)[C@@H](F)C[C@@H](F)[C@H]2F)cc1)C1(N2CCOCC2)CC1; assay = liver microsome stability; system = rat liver microsomes; setting = 1 µM; endpoint = hepatic clearance; result = 48 mL/min/kg
Structure (SMILES) = COC1CN([C@H]2CC[C@H]([C@@]3(C)Oc4c(Cl)cc(C(=O)NCc5c(SC)cc(C)[nH]c5=O)c(C)c4O3)CC2)C1; assay = RNA-seq, item: NDST3 mouse homolog; system = mouse, HT-1376 xenograft, whole blood; setting = dose not given; how to read = relative to: vehicle; endpoint = log2 fold change; result = 0.104
Structure (SMILES) = CO[C@@H]1[C@@H](OC(N)=O)[C@@H](O)[C@H](Oc2ccc3c(O)c(NC(=O)c4ccc(O)c(CC=C(C)C)c4)c(=O)oc3c2C)OC1(C)C; tested on = HCT-116 BRCA2 wild-type; setting = 300 µM, replicate B; how to read = relative to: untreated; endpoint = colony survival; result = 0.455%
Structure (SMILES) = c1ccc(-c2n[nH]cc2-c2ccnc3ccccc23)nc1; tested on = ENV7 (Candida albicans); assay = kinase binding, MIB/MS competition; system = Candida albicans lysate; setting = 1 µM; how to read = relative to: DMSO; endpoint = log2 fold change; result = 0.12
Structure (SMILES) = C=CC(=O)Nc1cccc(Cn2ncc3cnc(Nc4cnn(CCOC)c4)nc32)c1; tested on = DCAMKL1 human; assay = binding, KINOMEscan; setting = 100 nM; how to read = lower = stronger binding; endpoint = percent of control; result = 99%
Structure (SMILES) = C=CC(=O)N1[C@H](c2ccc3c(c2)OCO3)c2[nH]c3ccccc3c2C[C@@H]1C(=O)N1CCN(C)CC1; tested on = human cyclin E1 N112C-3xFLAG:CDK2; assay = co-IP with TMT proteomics, item: KPNA2; setting = concentration not given, P52292; how to read = relative to: wild type DMSO; endpoint = relative co-enrichment; result = 114%
Structure (SMILES) = Nc1ncc(-c2cc(-c3cnn(CC(F)(F)F)c3)ncc2F)nc1C(=O)NC1CNCC(F)C1 (stereo not drawn); tested on = FER; assay = KINOMEscan; setting = 1 µM; how to read = relative to: DMSO control; endpoint = remaining binding; result = 90%
Structure (SMILES) = CC(C)C[C@H](NC(=O)[C@H](Cc1ccc(O)cc1)NC(=O)[C@@H](CCCNC(=N)N)NC(=O)[C@@H](CO)NC(=O)[C@H](Cc1ccccc1)NC(=O)[C@H](CC1CCCCC1)NC(=O)[C@H](CC(=O)O)NC(=O)CN1CCN(CC(=O)O)CCN(CC(=O)O)CCN(CC(=O)O)CC1)C(=O)N[C@@H](Cc1c[nH]c2ccccc12)C(=O)N[C@@H](CO)C(=O)O [copper-64 labelled]; system = human, red marrow; setting = concentration not given, 1 h; endpoint = activity concentration; result = 1520 Bq/mL and 1660 Bq/mL and 1160 Bq/mL and 926 Bq/mL and 2050 Bq/mL
Structure (SMILES) = C[n+]1cc(/C=N/NC(=O)N/N=C/c2cc3ccccc3[n+](C)c2)cc2ccccc21; tested on = 22CTA telomeric G4-DNA antiparallel; assay = FRET melting; setting = 1 µM, K10 buffer, DNA 0.2 µM; endpoint = ΔTm; result = 6.3 ± 1.3 °C

Excerpt of the above:
Structure (SMILES) = O=C(Nc1ccc([C@H]2[C@@H](F)[C@@H](F)C[C@@H](F)[C@H]2F)cc1)C1(N2CCOCC2)CC1; assay = liver microsome stability; system = rat liver microsomes; setting = 1 µM; endpoint = hepatic clearance; result = 48 mL/min/kg
